# Experimental data from different studies.
# Each numbered part is a random draw from the data of one study; scales do not carry over between parts.

# Block 1
# Target: RING finger protein unkempt homolog, zinc fingers 1-6, SBP tag (UNK, Homo sapiens, UniProt Q9C0B0, residues 30-357)
# Chain of UniProt Q9C0B0 (30-357, looked up): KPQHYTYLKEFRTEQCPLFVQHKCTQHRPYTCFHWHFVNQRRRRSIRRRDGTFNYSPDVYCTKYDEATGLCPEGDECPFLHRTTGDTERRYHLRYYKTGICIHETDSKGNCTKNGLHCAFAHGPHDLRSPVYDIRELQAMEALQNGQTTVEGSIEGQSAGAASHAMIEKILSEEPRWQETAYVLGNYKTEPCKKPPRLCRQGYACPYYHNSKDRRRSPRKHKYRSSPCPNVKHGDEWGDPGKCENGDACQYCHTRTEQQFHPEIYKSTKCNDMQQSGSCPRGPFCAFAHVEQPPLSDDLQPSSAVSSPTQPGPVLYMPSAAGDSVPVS
# Technique: RNA Bind-n-Seq
# Form: RNA
# Medium: in vitro
# Tested at: 100 nM
# Notes: RNA with constant flanks, vertebrate orthologous sites, ends assumed
# Relative to: input RNA pool
# Direction: higher = stronger binding
Sequence,bound/input enrichment [ratio]
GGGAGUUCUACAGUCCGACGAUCCGGCAGAUUCUCUCAUAGGAAGAGCUGCACACAUUGCUGUUCUUGAUUCAGAAAUAUUUUUAGAAAAAUUCUUUCUUGUUGCUGCCCUAAAAUAUUUUCAGUAGGGAAUAGCAUUCUAAGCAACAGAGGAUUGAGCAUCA,1.31
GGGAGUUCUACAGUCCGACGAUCUUAGGAGUUUGGUUUGAGUGACAGCCCUUGAGAAGGUCACACAGCGAGCUUCCUUCUGUCUAGUUUACAGACAAUGUAAUAGCAAAGAUCUUGUGCCGCAAUACUGUUUUUACAUUCCCACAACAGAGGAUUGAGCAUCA,0.412
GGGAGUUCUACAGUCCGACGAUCAUCAUGGACGCUUUUACCUACCUCAGUGAGGUAACGUCUCCCCUGACGUUUGGUUGGCACUAGGGCCCAUCACACCUAAUCUGUCUUUCCACAUUUCAUCUCUUUUUGCUCACACUCAUCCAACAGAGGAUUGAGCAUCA,0.915
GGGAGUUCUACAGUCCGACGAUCUGUCUGCCUCAUUCUAAAAUUUACACAGUAGACCAUUUGUCAUCCAUGCUGUCCCACAAAUAGUUUUUUGUUUACGAUUUAUGACAGGUUUAUGUUACUUCUAUUUGAAUUUCUGUAUUUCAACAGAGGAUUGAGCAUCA,1.32
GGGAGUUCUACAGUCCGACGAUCACGCAUUUUGCAACUUGGAUGUGGUCUGCACAGGAAGCUGCUGGCCCCUCCACAACAACACAGAAAAUGUUUGUCUUUUUUUUUUGAGGAUGCUAAAACUGAAUUGAAUUUACUAAAAAUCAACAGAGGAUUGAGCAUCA,0.301
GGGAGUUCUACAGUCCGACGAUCUCCUCAACGUGUUCGAGCUUGUGAUCCUUCAAAGAUGGGUUAUGCGUUAAUUCUAGGUACUAGAAAUGUUUACUUCUCUCUUUCCACUGAUCAGAGAAACAGGCAUCAAAAACAGAAAUACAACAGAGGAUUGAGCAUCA,0.442
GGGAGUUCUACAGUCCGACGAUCAUUUUUACAAUCUCAAGCAGGUAUUUACGUACCACGAUAAGCCUUCAUUUGACAUAUUUACAGCUUUUCUAUUUUCCAGAUGAGAGAAAAGAAUUCCAUGCUUAGAGUUAAAUGUGGUCUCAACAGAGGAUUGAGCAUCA,0.517
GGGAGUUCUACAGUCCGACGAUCGUGAGGGUCUACUGACCACUCACUGUUAUGUCUGGUAUCUGUAAACACUCUUUUUGUUCUUAGUCUUUUUCUUGUAUAAUUGAUGUUCUUUAAAAUUGUUAACGUAUAACAGGGCUUAUGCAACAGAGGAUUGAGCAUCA,2.12
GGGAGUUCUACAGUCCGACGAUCUCCUCUGAACCCCAUAUCUUCUGUUUCAUAAUGCAGAAGUGUUCUUUUCAAUUAUAUUAGUGGACUUGUUUUAAUUUUAGAGAAACUUCCAGUAAGAUACUAUGGGCUGACAUGGAAAAACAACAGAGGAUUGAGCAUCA,2.84
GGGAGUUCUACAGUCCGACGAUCUCCCCGUUACCCCUAAAGUAGAACAUUUUUUAAAUUGUGUUGCCACCACUUCUAAAAAUUUAGCAACAUUAGAAUAGGACACUAAUGAAGUAAGAAAUUUUGCUUGUUAUUUUGCAAUCCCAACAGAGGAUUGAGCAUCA,4.9
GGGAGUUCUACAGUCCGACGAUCAGGGAGGGCCCCCAAGUCCACCUCUCUUUGUUCUGUAAACCACAGCCUGUAAAUAAUGUUUAGCAUUCCUAUUGUAACAAAAUUAAUUUUUAUGAAAUAAAUUAUAUUUCCUAGUCUAAUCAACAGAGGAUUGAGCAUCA,0.645

# Block 2
# Target: Phosphate system positive regulatory protein PHO4, full length, GST-tagged (PHO4, Saccharomyces cerevisiae, UniProt P07270, residues 1-312)
# Technique: competition protein-binding microarray
# Form: double-stranded DNA, one strand shown
# Medium: in vitro
# Tested at: 2 µM
# Notes: whole 60-bp probe, lowest competitor level
# Together with: Cbf1 competitor, 0.05 µM
# Direction: higher = stronger binding
# Construct (chain): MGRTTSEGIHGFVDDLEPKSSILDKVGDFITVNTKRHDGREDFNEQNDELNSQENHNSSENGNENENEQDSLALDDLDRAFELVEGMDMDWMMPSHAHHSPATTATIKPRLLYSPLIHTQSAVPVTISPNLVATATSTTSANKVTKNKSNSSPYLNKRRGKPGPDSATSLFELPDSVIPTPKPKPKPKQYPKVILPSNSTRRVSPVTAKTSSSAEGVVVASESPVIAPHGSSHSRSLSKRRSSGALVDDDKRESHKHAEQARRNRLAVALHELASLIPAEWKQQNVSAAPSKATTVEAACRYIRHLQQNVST
Sequence,fluorescence intensity [a.u.]
AAATTACTAAGTTGGGCTGTGGGTGACGCCGTATGAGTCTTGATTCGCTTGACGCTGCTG,4130
CTCCTTTGGGATACCACCGTGGGTAATCTCAGCGGGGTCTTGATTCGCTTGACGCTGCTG,8170
TGCTGTAAGCAAAAGCACGGGTGGCCAAAGCAAAGGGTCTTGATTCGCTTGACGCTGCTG,8440
CAAGATATAACTCATCACATGTTAAAGAACCCACAAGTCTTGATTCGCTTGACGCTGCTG,9580
ATAGCTGCACCAACGTCTCTAGTTAGATATAACGTAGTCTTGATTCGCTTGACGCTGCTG,3540
TACTCCACTGCTCCACACGTTGTTGCTGCTGTTATGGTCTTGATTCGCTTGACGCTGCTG,14300
TGCGCAACAACTTTTCACGTGTTTTTATGTCTAGAAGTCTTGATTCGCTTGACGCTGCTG,14800
CTTTTATGATCGAGTCACCTGACGAACCATTCTTGAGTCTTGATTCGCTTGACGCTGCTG,3590
TAATGCCCGACATTGGACGTGGGACGATAAAGATTGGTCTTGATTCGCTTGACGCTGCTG,5260
CCTCCGTACCACCCAAACGTGTAGTTTTGATGTTTTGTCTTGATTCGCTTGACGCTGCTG,9530
TTCAGACAAATCCAACATGTGGGAGGAGAATAATGGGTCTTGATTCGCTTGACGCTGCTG,11800
CGGGGTTAAGTTTTTCACGTGGACTGCTTGCAGCAGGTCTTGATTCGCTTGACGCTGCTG,12600
TGGGAATCCGCTTGGCGCGTGATGGAGCCAATGAACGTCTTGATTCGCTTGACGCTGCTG,7980
CTAGATGATAACCGACACGGGTTGGAAGACGGAAATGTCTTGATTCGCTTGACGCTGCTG,8950
AATGAGTTCACTCACCACGTTAGAGTCTCCCAATATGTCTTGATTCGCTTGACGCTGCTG,6140
ATGAAATAACATCCACACGTGTAAGAATATATAATTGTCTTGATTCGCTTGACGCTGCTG,17900
TTTCAAGCGTCCGAACGCGTGAGGATATATGCAAGCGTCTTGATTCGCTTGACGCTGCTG,5970
AAAGCGGTAATTTGGGCGGTGGGTGCAGATATCTATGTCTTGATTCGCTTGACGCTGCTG,3950
AAATGCAGCCAAAGATGCGTGCCGATGCAGTTAGCTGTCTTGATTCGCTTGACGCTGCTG,7350
GCTTATATCAACCGTCACGGGACTCTATCCAAGACTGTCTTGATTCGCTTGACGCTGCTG,5410
CCAGTGATTGCGTCCCACGCTCGTTACTGGTTCCTGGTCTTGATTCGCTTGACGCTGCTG,6800
CTTGGAGACACCCTTCACGGGCCGCCCGGGTATCCGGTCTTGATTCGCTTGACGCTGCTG,4110
GTCTTGTCTCATTGTAAGGTGGGTGTCCCCACTTCAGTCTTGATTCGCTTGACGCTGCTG,4790
GCGTCTGCTCCCCATCACGATACCCGAGGTGCAGGCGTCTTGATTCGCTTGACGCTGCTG,5340
GTCTTGTCTCATTGCTCCGTGGGTGTCCCCACTTCAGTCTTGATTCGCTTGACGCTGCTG,5800

# Block 3
# Target: Histone acetyltransferase KAT6A, both winged helices, GST fusion (KAT6A, Homo sapiens, UniProt Q92794, residues 1-181)
# Technique: protein binding microarray
# Form: double-stranded DNA, one strand shown
# Medium: in vitro
# Tested at: not given
# Notes: 8-mer, flanks averaged, mean of 2 arrays, mostly near background
# Relative to: not given
# Direction: higher = stronger binding
# Residues (chain): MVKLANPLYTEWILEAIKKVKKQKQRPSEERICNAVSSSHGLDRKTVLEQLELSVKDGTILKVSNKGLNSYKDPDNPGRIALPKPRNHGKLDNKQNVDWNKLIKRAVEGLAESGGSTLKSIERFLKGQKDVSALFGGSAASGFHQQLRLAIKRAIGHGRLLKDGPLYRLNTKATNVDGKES
Sequence,E-score
ACTTTGGA,-0.0625
AAGGTGCT,-0.221
ACCCCTGA,-0.183
CGGGATAG,0.154
CATACACC,0.00859
ACTGGCAA,-0.141
CAGTGGCA,-0.217
AGCTACGG,0.0713
CACGGAGG,0.113
AAGATAGG,-0.249
AGATGTTC,-0.153
AGGCGCAC,0.154
CCGGCACC,0.228
CAGCACGA,-0.0636
GTTCTATA,-0.0771
GCATCATA,-0.0682
AACACTTA,-0.119
AATCACGC,0.0821
TGCCCAAA,-0.0582
TACTATGA,-0.0541
AGTGAATC,-0.225
CCAACGGG,0.0949
AGACGCAG,-0.0348
GGAGGGAC,-0.0783

# Block 4
# Target: Runt-related transcription factor 3, Runt domain (RUNX3, Homo sapiens, UniProt Q13761, residues 53-186)
# Chain of UniProt Q13761 (53-186, looked up): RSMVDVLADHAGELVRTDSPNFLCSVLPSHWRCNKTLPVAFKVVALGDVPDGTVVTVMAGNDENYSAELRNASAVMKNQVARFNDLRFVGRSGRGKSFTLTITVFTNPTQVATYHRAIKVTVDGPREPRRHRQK
# Technique: protein-binding microarray
# Form: hairpin DNA
# Medium: in vitro
# Tested at: not given
# Notes: whole hairpin DNA, median over replicate spots
# Relative to: not given
# Direction: higher = stronger binding
Sequence,median fluorescence
CTCAGTTCTGTGGGCCGGACTCCTGTCCGGCCCACAGAACTGAGACACTC (5mC at 16 28),4120 a.u.
GAGGCCTGTGGCGGTTGGCCTCCTGGCCAACCGCCACAGGCCTCACACTC,6120 a.u.
GAGGCCTGTCGCGGTGGGCCTCCTGGCCCACCGCGACAGGCCTCACACTC,5520 a.u.
CTCAGTTCTGTGGGCCGGACTCCTGTCCGGCCCACAGAACTGAGACACTC,4440 a.u.
GAGGCCTGTCGCGGTTGGCCTCCTGGCCAACCGCGACAGGCCTCACACTC (5mC at 10 32),5030 a.u.
CTCAGTTCTGTGGGCAGGACTCCTGTCCTGCCCACAGAACTGAGACACTC,4280 a.u.
GAGGCCTGTTGTCGTTGGCCTCCTGGCCAACGACAACAGGCCTCACACTC (5mC at 31),4610 a.u.
GAGGCCTCTCGCGGTTGGCCTCCTGGCCAACCGCGAGAGGCCTCACACTC,5770 a.u.
GAGGCCTGTTGTGGTTAGCCTCCTGGCTAACCACAACAGGCCTCACACTC,6160 a.u.
CTCAGTTCTGTGGGCGGGACTCCTGTCCCGCCCACAGAACTGAGACACTC (5mC at 29),4130 a.u.
GAGGCCCAACGGCAACAGCCTCCTGGCTGTTGCCGTTGGGCCTCACACTC (5mC at 34),5000 a.u.
GAGGCCTGTTGCGGTTGGCCTCCTGGCCAACCGCAACAGGCCTCACACTC (5mC at 31),5250 a.u.
GAGGCCTGTTGTGGTTGGCCTCCTGGCCAACCACAACAGGCCTCACACTC (5mC at 32),4460 a.u.
GAGGCCCGACCGCAACAGCCTCCTGGCTGTTGCGGTCGGGCCTCACACTC (5mC at 7 37),8350 a.u.
GAGGCCTGTTGCGGTCGGCCTCCTGGCCGACCGCAACAGGCCTCACACTC (5mC at 16),8270 a.u.
GAGGCCCCGCCGCAACAGCCTCCTGGCTGTTGCGGCGGGGCCTCACACTC (5mC at 8 36),5960 a.u.

# For quick reference, copied from above (block 2):
Sequence,fluorescence intensity [a.u.]
CGGGGTTAAGTTTTTCACGTGGACTGCTTGCAGCAGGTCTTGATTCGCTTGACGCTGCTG,12600
TGGGAATCCGCTTGGCGCGTGATGGAGCCAATGAACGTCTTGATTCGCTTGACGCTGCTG,7980
CTAGATGATAACCGACACGGGTTGGAAGACGGAAATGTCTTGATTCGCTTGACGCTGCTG,8950
AATGAGTTCACTCACCACGTTAGAGTCTCCCAATATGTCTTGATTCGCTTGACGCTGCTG,6140
ATGAAATAACATCCACACGTGTAAGAATATATAATTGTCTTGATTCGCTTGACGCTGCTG,17900
TTTCAAGCGTCCGAACGCGTGAGGATATATGCAAGCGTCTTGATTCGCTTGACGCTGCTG,5970
AAAGCGGTAATTTGGGCGGTGGGTGCAGATATCTATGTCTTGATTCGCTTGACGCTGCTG,3950
AAATGCAGCCAAAGATGCGTGCCGATGCAGTTAGCTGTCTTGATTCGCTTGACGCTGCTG,7350
GCTTATATCAACCGTCACGGGACTCTATCCAAGACTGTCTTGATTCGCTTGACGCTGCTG,5410
CCAGTGATTGCGTCCCACGCTCGTTACTGGTTCCTGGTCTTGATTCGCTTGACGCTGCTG,6800
